Results from different studies.
Each numbered part is a random draw from the data of one study; scales do not carry over between parts. Substitutions count along the parent as printed.

Series 1
Target: RNA binding protein fox-1 homolog 2, RRM domain, GST-SBP tag (RBFOX2, Homo sapiens, UniProt O43251-10, residues 100-194)
Technique: RNA Bind-n-Seq
Molecule type: RNA
Matrix: in vitro
Tested at: 365 nM
Notes: natural RNA segment, single round, ends assumed
Relative to: no-protein control
Reading: higher = stronger binding
Measurement: RBNS enrichment (R)
Constant ends, left off below: GGGAGUUCUACAGUCCGACGAUC … UGGAAUUCUCGGGUGCCAA
Residues (chain): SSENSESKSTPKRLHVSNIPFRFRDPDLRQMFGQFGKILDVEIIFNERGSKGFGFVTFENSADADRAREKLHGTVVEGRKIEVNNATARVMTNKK
GCUGUUCUUCCCAGUCGGUAGGGGAGUGACCCUCUAGGACAGGAAGCUGGGCUGGCCCAGGCCAGUGCCACCUUUGUCCUCUCUUAACUCCAAGAAGUGCAAGUGAACUU: 0.331
ACGUGCGCAGGAAGGGCUCCUCUUAGAGAAGCAGCCAAACUGUGAAGCACUAAGCUGACCCUGCUUCAAGCAAUUUUGUUUUUACAACUGUUCCUUUCACAAGCAAGCCU: 0.304
UUGUGGGGCUGCCCCUCCGGGUUUCUCAUCCUGUCCUUGGUGCCUUUUUCUGCCCAACAAGUCCAGGGAAGGCCGAGGUCUCAGACUCCUGGGUAGGGGUGGGGGUUUGA: 0.359
CUAUAUUCUCAGGCACACAUAGGCGCACAGAGACAGCUUCCUAGUAACUCACAUCAAUUUCGUUUAAUACAAACUGAUCCUGAAGAGCUGAGGAACUAUGUAAGUUCAGU: 0.372
UUCAGGACCAUCCCAGAAAGGGGUGAUAGCCCUGUUUAUCUCUCCAACCCAGUAUCUCAUGUGCCAAAGCCUUCCCCCAGGUAGACAGAGGGGACAUUGCCUGAGAGCUC: 0.256
AAUGAUUUGGACAAGCUCCUGUGUGUGCUGAGACCUGGCUGGCCAGCUGCUAGAGGGGAAAAACAAUUAAGACAAUGGAAAAGGAAAAAGGAAUGAAGGAACCUCCCUCC: 1.23
GACAGUGACACAUGUAACUUAGCAUAGGCAAAGGGUUCUACAACCAAAGAAGCCACUGUUUGGGGAUGGCGCCCUGGAAAACAGCCUCCCACCUGGGAUAGCUAGAGCAU: 1.65
AUGGGGCACACGCCCCAAGGGACAUGAUCCUCUCCUUAGUCUUAGCUCAUGGGGCUCUUUAUAAGGAGUUGGGGGGUAGAGGCAGGAAAUGGGAACCGAGCUGAAGCAGA: 0.613

Series 2
Target: Sal-like protein 4, full length isoform B (SALL4, Homo sapiens, UniProt Q9UJQ4-2, residues 1-616)
Technique: universal PBM
Molecule type: double-stranded DNA, one strand shown
Matrix: in vitro
Tested at: not given
Notes: 8-mer, flanks averaged, mean of replicates
Reading: higher = stronger binding
Measurement: E-score
Construct (chain): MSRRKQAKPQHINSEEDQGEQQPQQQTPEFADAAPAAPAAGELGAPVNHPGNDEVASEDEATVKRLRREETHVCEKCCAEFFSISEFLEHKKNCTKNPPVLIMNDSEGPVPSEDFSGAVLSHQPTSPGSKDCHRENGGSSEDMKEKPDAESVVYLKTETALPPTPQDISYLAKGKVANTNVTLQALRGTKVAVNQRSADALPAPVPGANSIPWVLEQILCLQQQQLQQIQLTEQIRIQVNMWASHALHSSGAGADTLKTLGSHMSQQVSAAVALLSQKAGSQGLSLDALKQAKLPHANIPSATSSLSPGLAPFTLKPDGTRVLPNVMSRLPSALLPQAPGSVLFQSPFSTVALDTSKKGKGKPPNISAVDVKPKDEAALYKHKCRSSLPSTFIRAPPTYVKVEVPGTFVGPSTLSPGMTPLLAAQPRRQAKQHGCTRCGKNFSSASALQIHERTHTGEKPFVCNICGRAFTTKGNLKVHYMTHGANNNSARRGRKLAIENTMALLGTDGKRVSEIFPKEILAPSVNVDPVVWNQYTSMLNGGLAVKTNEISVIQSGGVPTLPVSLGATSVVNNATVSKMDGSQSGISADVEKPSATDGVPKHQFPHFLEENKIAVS
GTTGTTCA: 0.00433
ATCCACAC: -0.161
GTCTGGTA: -0.127
GGTACCAA: -0.172
CGCAGTGA: -0.0818
TACATGAA: 0.299
CAGAGTCC: -0.0974
ACGGCCGA: -0.166

Series 3
Sequence: AAAVRKPIVLKR
Technique: competitive growth deep sequencing
Molecule type: peptide
Tested at: concentration not given
Reading: direction not given
Measurement: growth enrichment score
Saccharomyces cerevisiae; binding; cyclin E1-Cln2 fusion strain; peptide tiling library: 0.125
yeast with cyclin B3-Cln2 chimera; cell growth, binder; peptide tiling library: -0.246
yeast with cyclin E2-Cln2 chimera; cell growth, binder; peptide tiling library: -0.459
Saccharomyces cerevisiae; binding; cyclin D3-Cln2 fusion strain; peptide tiling library: -0.127
Saccharomyces cerevisiae; binding; cyclin E1-Cln2 fusion strain; tiling library, Cln2 subtracted: 0.125
yeast with cyclin F-Cln2 chimera; cell growth, binder; peptide tiling library: -0.0959
Saccharomyces cerevisiae; binding; cyclin D3-Cln2 fusion strain; tiling library, Cln2 subtracted: -0.127

Series 4
Target: vanadate, free oxyanion
Technique: microfluidic competitive inhibition
Matrix: in vitro, cell-free expressed
Tested at: not given
Notes: derived from inhibition constants, unchanged parent 676 nM
Reading: lower = stronger binding
Measurement: oxyanion analog dissociation constant
Starting sequence: PafA, mature enzyme, eGFP fusion (Elizabethkingia meningoseptica, UniProt Q9KJX5); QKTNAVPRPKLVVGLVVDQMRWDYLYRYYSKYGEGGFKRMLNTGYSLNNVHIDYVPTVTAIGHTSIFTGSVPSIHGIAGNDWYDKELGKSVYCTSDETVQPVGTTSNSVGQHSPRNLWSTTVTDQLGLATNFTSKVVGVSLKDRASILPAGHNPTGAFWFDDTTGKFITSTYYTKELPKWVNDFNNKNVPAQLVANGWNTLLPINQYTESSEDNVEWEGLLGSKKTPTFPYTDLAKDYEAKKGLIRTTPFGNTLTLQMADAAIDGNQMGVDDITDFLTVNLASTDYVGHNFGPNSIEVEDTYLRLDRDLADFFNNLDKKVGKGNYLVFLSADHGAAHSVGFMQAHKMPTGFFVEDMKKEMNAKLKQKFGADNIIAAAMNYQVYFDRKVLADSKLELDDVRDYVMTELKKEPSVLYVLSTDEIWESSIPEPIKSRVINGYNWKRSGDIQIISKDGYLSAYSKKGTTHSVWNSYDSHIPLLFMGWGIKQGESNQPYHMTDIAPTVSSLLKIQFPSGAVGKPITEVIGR
F351G: 590 nM
S460V: 706 nM
M40G: 1230 nM
S418V: 828 nM
P249V: 639 nM
N116V: 896 nM
L221V: 585 nM
D272V: 728 nM
D311V: 868 nM
L414V: 698 nM
K367G: 610 nM
V91A: 751 nM
G88A: 543 nM
T120V: 735 nM
T133V: 548 nM
Y286G: 1190 nM
T94V: 369 nM
Y24G: 1300 nM
D391V: 719 nM

Repeated from above (series 1):
GCUGUUCUUCCCAGUCGGUAGGGGAGUGACCCUCUAGGACAGGAAGCUGGGCUGGCCCAGGCCAGUGCCACCUUUGUCCUCUCUUAACUCCAAGAAGUGCAAGUGAACUU: 0.331
ACGUGCGCAGGAAGGGCUCCUCUUAGAGAAGCAGCCAAACUGUGAAGCACUAAGCUGACCCUGCUUCAAGCAAUUUUGUUUUUACAACUGUUCCUUUCACAAGCAAGCCU: 0.304
UUGUGGGGCUGCCCCUCCGGGUUUCUCAUCCUGUCCUUGGUGCCUUUUUCUGCCCAACAAGUCCAGGGAAGGCCGAGGUCUCAGACUCCUGGGUAGGGGUGGGGGUUUGA: 0.359
CUAUAUUCUCAGGCACACAUAGGCGCACAGAGACAGCUUCCUAGUAACUCACAUCAAUUUCGUUUAAUACAAACUGAUCCUGAAGAGCUGAGGAACUAUGUAAGUUCAGU: 0.372
